{"data": "Measurements pooled from the literature", "HDAC6": "Protein deacetylase HDAC6 (HDAC6, Homo sapiens, UniProt Q9UBN7)", "CA12": "Carbonic anhydrase 12 (CA12, Homo sapiens, UniProt O43570)", "POLL": "DNA polymerase lambda (POLL, Homo sapiens, UniProt Q9UGP5)", "GBA1 R534H": "Lysosomal acid glucosylceramidase (GBA1, Homo sapiens, UniProt P04062, R534H)", "note": "Compare with care: the assays were run in different laboratories. ± gives the spread as reported.", "chain of UniProt Q9UBN7 (whole entry, looked up)": "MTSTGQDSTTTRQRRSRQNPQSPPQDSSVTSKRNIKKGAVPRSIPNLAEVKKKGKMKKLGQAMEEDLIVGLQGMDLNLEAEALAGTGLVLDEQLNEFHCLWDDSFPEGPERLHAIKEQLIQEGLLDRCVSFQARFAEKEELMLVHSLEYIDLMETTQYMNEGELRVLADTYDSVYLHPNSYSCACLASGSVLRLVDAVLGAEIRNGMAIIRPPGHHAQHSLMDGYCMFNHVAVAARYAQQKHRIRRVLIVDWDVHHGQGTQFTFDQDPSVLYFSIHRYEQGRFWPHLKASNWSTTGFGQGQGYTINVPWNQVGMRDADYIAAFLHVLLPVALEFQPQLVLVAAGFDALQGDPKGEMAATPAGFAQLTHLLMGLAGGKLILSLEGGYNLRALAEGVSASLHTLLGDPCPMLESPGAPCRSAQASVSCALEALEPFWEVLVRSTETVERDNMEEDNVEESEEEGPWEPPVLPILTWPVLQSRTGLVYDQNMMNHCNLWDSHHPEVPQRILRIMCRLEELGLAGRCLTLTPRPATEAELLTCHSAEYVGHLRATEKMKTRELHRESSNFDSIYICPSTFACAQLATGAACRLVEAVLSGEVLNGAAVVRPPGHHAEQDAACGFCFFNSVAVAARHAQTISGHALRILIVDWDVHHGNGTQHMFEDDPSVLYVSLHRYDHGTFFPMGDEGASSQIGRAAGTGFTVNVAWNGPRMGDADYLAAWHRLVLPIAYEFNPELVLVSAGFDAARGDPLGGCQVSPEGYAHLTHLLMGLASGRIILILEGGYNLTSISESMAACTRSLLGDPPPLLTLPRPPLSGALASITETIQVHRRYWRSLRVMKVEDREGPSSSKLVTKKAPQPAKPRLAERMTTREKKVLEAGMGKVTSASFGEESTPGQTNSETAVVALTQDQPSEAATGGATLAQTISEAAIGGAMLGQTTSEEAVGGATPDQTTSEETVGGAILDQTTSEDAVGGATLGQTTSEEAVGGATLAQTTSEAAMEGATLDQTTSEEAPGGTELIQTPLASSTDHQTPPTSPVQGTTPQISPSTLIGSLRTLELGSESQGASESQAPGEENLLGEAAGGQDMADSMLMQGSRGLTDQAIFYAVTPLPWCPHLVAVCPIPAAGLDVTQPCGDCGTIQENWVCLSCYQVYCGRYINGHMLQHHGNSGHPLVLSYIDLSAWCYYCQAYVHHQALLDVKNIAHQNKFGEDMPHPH", "chain of UniProt P04062 (whole entry, unmodified, looked up)": "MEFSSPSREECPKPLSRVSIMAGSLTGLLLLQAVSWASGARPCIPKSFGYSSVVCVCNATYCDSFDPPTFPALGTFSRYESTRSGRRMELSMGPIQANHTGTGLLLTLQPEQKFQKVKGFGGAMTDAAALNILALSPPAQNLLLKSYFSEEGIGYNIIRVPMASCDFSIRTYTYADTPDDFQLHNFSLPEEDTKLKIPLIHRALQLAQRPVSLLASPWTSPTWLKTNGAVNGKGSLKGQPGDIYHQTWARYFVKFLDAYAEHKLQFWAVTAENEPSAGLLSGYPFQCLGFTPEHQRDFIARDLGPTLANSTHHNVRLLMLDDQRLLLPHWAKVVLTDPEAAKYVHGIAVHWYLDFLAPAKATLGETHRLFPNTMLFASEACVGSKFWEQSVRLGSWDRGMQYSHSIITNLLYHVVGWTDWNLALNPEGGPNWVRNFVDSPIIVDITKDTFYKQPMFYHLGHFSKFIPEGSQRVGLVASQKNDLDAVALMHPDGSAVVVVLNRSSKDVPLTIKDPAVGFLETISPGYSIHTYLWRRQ", "chain of UniProt Q9UGP5 (whole entry, looked up)": "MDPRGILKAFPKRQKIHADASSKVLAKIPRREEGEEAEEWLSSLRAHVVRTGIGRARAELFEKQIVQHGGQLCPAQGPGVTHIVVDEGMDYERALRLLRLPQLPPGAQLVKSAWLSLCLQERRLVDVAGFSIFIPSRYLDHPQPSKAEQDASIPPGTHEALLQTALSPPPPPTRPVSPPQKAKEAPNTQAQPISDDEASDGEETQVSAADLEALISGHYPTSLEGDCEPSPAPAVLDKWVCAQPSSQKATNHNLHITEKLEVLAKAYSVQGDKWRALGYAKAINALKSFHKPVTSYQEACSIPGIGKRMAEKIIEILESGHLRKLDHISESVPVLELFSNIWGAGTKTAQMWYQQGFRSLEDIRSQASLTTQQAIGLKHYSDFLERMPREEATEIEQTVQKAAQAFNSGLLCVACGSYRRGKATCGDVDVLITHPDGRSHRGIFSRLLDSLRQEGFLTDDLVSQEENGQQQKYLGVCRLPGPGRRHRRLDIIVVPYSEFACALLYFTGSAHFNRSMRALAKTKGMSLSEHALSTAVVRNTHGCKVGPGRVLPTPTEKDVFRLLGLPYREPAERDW", "chain of UniProt O43570 (whole entry, looked up)": "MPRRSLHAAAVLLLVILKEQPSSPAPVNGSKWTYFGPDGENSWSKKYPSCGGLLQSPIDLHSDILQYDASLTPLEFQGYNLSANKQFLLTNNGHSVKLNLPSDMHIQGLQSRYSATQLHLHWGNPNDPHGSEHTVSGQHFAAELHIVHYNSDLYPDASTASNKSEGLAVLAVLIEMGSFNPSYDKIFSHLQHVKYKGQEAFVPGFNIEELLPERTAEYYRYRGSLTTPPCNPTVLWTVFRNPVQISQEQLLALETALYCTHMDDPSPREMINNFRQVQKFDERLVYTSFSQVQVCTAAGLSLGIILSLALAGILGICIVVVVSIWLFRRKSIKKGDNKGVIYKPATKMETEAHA", "chain of UniProt P43220 (whole entry, unmodified, looked up)": "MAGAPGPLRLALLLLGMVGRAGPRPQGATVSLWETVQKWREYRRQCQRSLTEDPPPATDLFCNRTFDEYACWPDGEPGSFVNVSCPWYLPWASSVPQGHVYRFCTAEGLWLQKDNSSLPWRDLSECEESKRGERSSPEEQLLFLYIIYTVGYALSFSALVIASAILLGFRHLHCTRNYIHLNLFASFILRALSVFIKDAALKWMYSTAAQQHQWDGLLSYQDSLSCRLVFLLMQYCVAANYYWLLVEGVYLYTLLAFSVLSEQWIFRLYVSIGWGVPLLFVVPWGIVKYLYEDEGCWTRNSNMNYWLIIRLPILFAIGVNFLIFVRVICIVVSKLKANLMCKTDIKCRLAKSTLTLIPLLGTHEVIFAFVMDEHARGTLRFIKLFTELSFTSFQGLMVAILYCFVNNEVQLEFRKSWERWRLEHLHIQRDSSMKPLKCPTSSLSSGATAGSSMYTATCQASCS", "chain of UniProt P07478 (whole entry, looked up)": "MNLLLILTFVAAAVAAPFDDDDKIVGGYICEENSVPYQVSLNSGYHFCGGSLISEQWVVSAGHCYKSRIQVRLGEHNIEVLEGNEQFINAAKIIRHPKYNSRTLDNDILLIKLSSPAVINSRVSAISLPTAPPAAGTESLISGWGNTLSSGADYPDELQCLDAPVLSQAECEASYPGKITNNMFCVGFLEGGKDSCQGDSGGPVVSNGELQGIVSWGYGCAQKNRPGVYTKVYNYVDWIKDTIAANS", "chain of UniProt P11086 (whole entry, looked up)": "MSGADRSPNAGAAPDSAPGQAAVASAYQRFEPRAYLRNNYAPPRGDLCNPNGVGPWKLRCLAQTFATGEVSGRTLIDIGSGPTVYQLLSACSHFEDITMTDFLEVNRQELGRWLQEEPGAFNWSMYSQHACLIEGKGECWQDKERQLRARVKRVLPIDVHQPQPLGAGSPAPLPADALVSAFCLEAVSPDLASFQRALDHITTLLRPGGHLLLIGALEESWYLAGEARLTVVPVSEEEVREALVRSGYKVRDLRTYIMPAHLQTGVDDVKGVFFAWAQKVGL", "chain of UniProt P34913 (whole entry, looked up)": "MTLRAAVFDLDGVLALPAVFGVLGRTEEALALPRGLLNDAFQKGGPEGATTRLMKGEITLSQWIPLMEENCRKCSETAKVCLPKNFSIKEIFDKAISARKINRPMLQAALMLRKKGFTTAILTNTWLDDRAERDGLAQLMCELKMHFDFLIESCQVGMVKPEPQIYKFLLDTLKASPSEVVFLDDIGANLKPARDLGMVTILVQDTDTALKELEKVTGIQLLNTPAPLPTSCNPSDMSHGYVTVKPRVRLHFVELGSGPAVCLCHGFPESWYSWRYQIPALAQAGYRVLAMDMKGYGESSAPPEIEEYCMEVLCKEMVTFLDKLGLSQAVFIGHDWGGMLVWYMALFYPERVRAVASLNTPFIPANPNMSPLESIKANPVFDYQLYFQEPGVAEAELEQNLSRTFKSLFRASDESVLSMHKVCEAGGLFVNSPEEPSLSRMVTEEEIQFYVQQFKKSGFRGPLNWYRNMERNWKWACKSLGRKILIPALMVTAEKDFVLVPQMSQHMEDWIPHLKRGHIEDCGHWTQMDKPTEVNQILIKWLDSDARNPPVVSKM", "chain of UniProt P28223 (whole entry, looked up)": "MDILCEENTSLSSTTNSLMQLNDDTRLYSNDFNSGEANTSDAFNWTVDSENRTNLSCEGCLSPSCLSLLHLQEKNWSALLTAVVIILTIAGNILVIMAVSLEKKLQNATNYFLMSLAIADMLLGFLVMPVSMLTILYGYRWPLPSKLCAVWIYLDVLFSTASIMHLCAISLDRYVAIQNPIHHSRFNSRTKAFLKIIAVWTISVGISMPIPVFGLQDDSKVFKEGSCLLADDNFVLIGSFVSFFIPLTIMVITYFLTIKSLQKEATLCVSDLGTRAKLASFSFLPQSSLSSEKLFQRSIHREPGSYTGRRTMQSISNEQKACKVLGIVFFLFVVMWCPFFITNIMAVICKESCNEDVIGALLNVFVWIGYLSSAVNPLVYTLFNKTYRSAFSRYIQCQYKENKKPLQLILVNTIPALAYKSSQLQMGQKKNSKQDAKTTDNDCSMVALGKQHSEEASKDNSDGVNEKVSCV"}
{"Structure (SMILES)": "CC[C@H](C)[C@@H]1NC(=O)[C@H](Cc2ccccc2C(F)(F)F)NC(=O)CCSCc2cccc(n2)CSCCCNC(=O)[C@H](CCCCCC(=O)NO)NC1=O", "target or system": "HDAC6", "test": "enzyme activity, inhibitor, fluorescence", "measurement": "Ki", "value": "0.021 µM"}
{"Structure (SMILES)": "CCCCCCC(=O)N[C@H]1CCOC1=O", "target or system": "CA12", "test": "enzyme activity, inhibitor, stopped-flow", "measurement": "Ki", "value": "16.9 µM"}
{"Structure (SMILES)": "O=C1Nc2ccccc2/C1=C1/Nc2ccccc2/C1=N\\O", "target or system": "EPHX2 (Homo sapiens, UniProt P34913)", "test": "enzyme activity, inhibitor, fluorescence", "measurement": "Ki", "value": "78.9 µM"}
{"Structure (SMILES)": "N#C[Se]CCCCCCOc1ccc2c(-c3ccccc3)cc(=O)oc2c1", "target or system": "CA12", "test": "enzyme activity, inhibitor, stopped-flow", "measurement": "Ki", "value": "0.164 µM"}
{"Structure (SMILES)": "O=P(O)(O)OP(=O)(O)OP(=O)(O)OCCCCO", "target or system": "POLL", "test": "DNA polymerase activity, inhibitor", "conditions": "together with: 1 mM Mg2+, poly(dA)/oligo(dT)", "measurement": "Ki", "value": "22 µM"}
{"Structure (SMILES)": "OC[C@H]1[C@@H](O)[C@H](O)[C@@H](O)CN1CCCCCOCCC12CC3CC(CC(C3)C1)C2", "target or system": "GBA1 R534H", "test": "inhibitor, 4MU-β-D-glucopyranoside", "conditions": "together with: 4MU-β-D-glucopyranoside", "measurement": "IC50", "value": "2 µM"}
{"Structure (SMILES)": "O=C(NCCOP(=O)(O)OP(=O)(O)OP(=O)(O)O)OCC1c2ccccc2-c2ccccc21", "target or system": "POLL", "test": "DNA polymerase activity, inhibitor", "conditions": "together with: 1 mM Mn2+, poly(dA)/oligo(dT)", "measurement": "Ki", "value": "4.5 µM"}
{"Structure (SMILES)": "Cc1nn(-c2cccc(N)c2)c(=O)c2cnc(Nc3ccc(N4CCNCC4)cc3)nc12", "target or system": "ROCK1 (Homo sapiens, UniProt Q13464)", "test": "kinase activity, inhibitor, SelectScreen kinase profiling", "measurement": "IC50", "value": "> 10 µM"}
{"Structure (SMILES)": "OC[C@H]1[C@@H](O)[C@H](O)[C@@H](O)CN1CCCCCOCc1cccc(-c2ccccc2)c1", "target or system": "GBA1 R534H", "test": "inhibitor, 4MU-β-D-glucopyranoside", "conditions": "together with: 4MU-β-D-glucopyranoside", "measurement": "IC50", "value": "20 µM"}
{"Structure (SMILES)": "CC(C)(C)c1cccc(OS(=O)(=O)Oc2cc(F)cc(C(=O)NO)c2)c1", "target or system": "HDAC6", "test": "enzyme activity, inhibitor, fluorescence", "measurement": "Ki", "value": "0.309 µM"}
{"Structure (SMILES)": "O=C(Nc1cccc(C(=O)N2CCC(c3nc(-c4ccccc4)n[nH]3)CC2)c1)c1ccccc1", "target or system": "FSP1", "test": "NADH oxidase activity, inhibitor", "conditions": "pH 7.2, together with: NADH varied, no coenzyme Q1", "measurement": "Ki", "value": "5.41 ± 2 µM"}
{"Structure (SMILES)": "CCc1c(Cl)cccc1N1CCN(C[C@H](F)CCNC(=O)c2cc3ccccc3[nH]2)CC1", "target or system": "HTR2A (Homo sapiens, UniProt P28223)", "test": "ligand displacement, radioligand", "conditions": "cell membranes", "measurement": "Ki", "value": "0.709 µM"}
{"Structure (SMILES)": "COc1cc(C2C(NC(=O)c3ccc(NC(=O)OC(C)(C)C)cc3)(C(=O)O)C(c3ccc(OC(=O)c4cccs4)c(OC)c3)C2(NC(=O)c2ccc(NC(=O)OC(C)(C)C)cc2)C(=O)O)ccc1OC(=O)c1cccs1 (centres unmarked)", "target or system": "GLP1R (Homo sapiens, UniProt P43220, L141A)", "test": "cAMP, agonist", "measurement": "EC50", "value": "0.234 µM"}
{"Structure (SMILES)": "Cc1nc(-c2c[nH]c(C(=O)Nc3ncccc3O)c2)cs1", "target or system": "Trypsin-2 (Homo sapiens, UniProt P07478)", "test": "enzyme activity, inhibitor, mixed inhibition model", "conditions": "together with: Z-GPR-pNA", "measurement": "Ki", "value": "185 ± 3 µM"}
{"Structure (SMILES)": "CC[C@@H]1NC(=O)[C@H](CCCNC(=N)N)NC(=O)[C@H](NC(=O)C(C)C)CNC(=O)c2cc(F)c(c(F)c2)N=Nc2c(F)cc(cc2F)C(=O)NCCNC1=O", "target or system": "WDR5 (Homo sapiens, UniProt P61964)", "test": "binding, inhibitor, competitive fluorescence polarization", "conditions": "trans isomer, 405 nm photostationary state", "measurement": "Ki", "value": "1.1 µM"}
{"Structure (SMILES)": "O=C(NO)c1cccc(OS(=O)(=O)Oc2ccccc2)c1", "target or system": "HDAC6", "test": "enzyme activity, inhibitor, fluorescence", "measurement": "Ki", "value": "0.059 µM"}
{"Structure (SMILES)": "Nc1ncnc2c1ncn2C1OC(CN(CCC(N)C(=O)O)CCC2CNCc3c2ccc(Cl)c3Cl)C(O)C1O (mixture of isomers)", "target or system": "PNMT (Homo sapiens, UniProt P11086)", "test": "enzyme activity, inhibitor, coupled-enzyme", "measurement": "Ki", "value": "34.1 ± 7.1 µM"}
{"Structure (SMILES)": "CC(C)(C)c1ccccc1OS(=O)(=O)Oc1cccc(C(=O)NO)c1", "target or system": "HDAC6", "test": "enzyme activity, inhibitor, fluorescence", "measurement": "Ki", "value": "0.409 µM"}
{"Structure (SMILES)": "Cc1cc(=O)oc2c(F)c(O[C@@H]3C=C(CO)[C@@H](O)[C@H](O)[C@H]3O)c(F)cc12", "target or system": "GBA1 (Homo sapiens, UniProt P04062)", "test": "mixed-type inhibitor", "conditions": "together with: resorufin β-glucoside", "measurement": "Ki", "value": "17 ± 7 µM"}
{"Structure (SMILES)": "COC1CN([C@H]2CC[C@H]([C@@]3(C)Oc4c(Cl)cc(C(=O)NCc5c(SC)cc(C)[nH]c5=O)c(C)c4O3)CC2)C1", "test": "RNA-seq, refers to: PLEKHH2", "test system": "human, whole blood", "conditions": "dose not given, 24 h", "scale": "baseline: pretreatment baseline", "measurement": "log2 fold change", "value": 2.82}
{"note": "For quick reference, copied from above:"}
{"Structure (SMILES)": "CC[C@@H]1NC(=O)[C@H](CCCNC(=N)N)NC(=O)[C@H](NC(=O)C(C)C)CNC(=O)c2cc(F)c(c(F)c2)N=Nc2c(F)cc(cc2F)C(=O)NCCNC1=O", "target or system": "WDR5 (Homo sapiens, UniProt P61964)", "test": "binding, inhibitor, competitive fluorescence polarization", "conditions": "trans isomer, 405 nm photostationary state", "measurement": "Ki", "value": "1.1 µM"}
{"Structure (SMILES)": "O=C(NO)c1cccc(OS(=O)(=O)Oc2ccccc2)c1", "target or system": "HDAC6", "test": "enzyme activity, inhibitor, fluorescence", "measurement": "Ki", "value": "0.059 µM"}
{"Structure (SMILES)": "Nc1ncnc2c1ncn2C1OC(CN(CCC(N)C(=O)O)CCC2CNCc3c2ccc(Cl)c3Cl)C(O)C1O (mixture of isomers)", "target or system": "PNMT (Homo sapiens, UniProt P11086)", "test": "enzyme activity, inhibitor, coupled-enzyme", "measurement": "Ki", "value": "34.1 ± 7.1 µM"}
